Published values from different studies.
Every numbered part comes from another study and shows a few of its results, in no order. Several values in a cell are separate wells, animals, samples, runs or records. ± marks the error that the study gave.
Chain of UniProt P08183 (whole entry, looked up): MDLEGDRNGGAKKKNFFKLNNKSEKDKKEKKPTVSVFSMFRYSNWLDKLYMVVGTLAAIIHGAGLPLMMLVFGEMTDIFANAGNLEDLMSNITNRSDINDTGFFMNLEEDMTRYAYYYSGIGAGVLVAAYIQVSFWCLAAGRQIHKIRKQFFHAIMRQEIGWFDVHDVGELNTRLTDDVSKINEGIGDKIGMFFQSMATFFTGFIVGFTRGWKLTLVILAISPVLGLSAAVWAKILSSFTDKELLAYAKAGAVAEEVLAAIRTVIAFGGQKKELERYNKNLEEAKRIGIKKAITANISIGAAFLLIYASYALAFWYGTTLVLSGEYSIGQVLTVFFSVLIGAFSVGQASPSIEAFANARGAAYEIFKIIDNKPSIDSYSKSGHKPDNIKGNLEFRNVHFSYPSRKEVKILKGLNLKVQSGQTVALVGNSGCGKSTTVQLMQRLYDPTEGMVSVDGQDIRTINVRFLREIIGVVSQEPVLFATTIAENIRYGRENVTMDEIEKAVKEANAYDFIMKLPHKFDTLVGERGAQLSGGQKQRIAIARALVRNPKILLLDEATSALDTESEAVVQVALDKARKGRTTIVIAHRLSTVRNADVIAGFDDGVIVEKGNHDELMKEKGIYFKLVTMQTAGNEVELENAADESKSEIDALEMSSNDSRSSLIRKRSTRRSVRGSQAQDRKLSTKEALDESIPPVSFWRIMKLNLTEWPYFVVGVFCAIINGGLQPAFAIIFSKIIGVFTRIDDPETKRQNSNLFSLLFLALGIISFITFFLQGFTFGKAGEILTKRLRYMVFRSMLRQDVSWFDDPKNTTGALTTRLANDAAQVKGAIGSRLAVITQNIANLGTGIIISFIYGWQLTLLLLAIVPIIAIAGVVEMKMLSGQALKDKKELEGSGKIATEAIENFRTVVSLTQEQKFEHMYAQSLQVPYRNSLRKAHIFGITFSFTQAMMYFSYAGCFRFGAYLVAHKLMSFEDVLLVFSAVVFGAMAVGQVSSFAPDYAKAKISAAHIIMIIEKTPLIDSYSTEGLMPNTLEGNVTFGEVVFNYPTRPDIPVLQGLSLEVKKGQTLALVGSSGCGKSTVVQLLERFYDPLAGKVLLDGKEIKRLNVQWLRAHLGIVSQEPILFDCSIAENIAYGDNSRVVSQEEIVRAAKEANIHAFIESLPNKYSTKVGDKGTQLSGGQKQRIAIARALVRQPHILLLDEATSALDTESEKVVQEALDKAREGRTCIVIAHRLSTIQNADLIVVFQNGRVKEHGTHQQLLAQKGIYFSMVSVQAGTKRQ
Chain of UniProt Q99640 (whole entry, looked up): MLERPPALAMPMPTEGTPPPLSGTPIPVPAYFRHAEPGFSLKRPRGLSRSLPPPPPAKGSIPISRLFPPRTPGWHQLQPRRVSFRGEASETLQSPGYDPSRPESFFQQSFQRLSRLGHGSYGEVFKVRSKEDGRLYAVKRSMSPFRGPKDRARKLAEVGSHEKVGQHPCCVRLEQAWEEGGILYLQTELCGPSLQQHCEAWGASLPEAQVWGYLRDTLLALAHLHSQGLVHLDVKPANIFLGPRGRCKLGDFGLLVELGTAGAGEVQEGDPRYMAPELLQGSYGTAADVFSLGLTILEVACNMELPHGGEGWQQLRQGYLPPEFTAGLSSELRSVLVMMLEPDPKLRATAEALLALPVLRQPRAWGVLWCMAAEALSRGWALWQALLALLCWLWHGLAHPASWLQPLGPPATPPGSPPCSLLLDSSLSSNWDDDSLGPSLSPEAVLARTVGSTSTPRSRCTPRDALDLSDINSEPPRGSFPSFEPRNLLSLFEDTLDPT
Chain of UniProt Q99808 (whole entry, unmodified, looked up): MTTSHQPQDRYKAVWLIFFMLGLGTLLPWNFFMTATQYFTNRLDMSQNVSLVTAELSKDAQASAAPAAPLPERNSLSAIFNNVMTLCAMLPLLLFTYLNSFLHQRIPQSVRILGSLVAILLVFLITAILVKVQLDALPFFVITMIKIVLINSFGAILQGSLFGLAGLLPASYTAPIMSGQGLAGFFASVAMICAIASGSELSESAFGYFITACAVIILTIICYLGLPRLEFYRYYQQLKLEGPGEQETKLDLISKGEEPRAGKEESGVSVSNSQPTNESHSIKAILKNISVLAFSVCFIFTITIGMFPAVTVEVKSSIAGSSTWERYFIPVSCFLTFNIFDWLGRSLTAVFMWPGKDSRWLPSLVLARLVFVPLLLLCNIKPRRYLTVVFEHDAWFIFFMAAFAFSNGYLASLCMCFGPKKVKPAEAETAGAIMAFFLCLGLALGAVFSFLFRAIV

Study 1 — observed: thermal unfolding; method: differential scanning fluorimetry; concentration: 5.5 µM; reading: higher = more unfolded
Compound: C[C@@H]1CN(c2ccc(-c3cc(C(=O)NCCOCCOCCOCCOCCNC(=O)/C=C/c4[nH]cc(C(=O)N[C@@H](CC(N)=O)c5ccc(F)c(Cl)c5)c4-c4ccc(Cl)cc4F)ccc3F)cc2NC(=O)c2c[nH]c(=O)cc2C(F)(F)F)C[C@H](C)N1C
WDR5: WD repeat-containing protein 5 (WDR5, Homo sapiens, UniProt P61964)
DCAF1: DDB1- and CUL4-associated factor 1 (DCAF1, Homo sapiens, UniProt Q9Y4B6)
Chain of UniProt Q9Y4B6 (whole entry, looked up): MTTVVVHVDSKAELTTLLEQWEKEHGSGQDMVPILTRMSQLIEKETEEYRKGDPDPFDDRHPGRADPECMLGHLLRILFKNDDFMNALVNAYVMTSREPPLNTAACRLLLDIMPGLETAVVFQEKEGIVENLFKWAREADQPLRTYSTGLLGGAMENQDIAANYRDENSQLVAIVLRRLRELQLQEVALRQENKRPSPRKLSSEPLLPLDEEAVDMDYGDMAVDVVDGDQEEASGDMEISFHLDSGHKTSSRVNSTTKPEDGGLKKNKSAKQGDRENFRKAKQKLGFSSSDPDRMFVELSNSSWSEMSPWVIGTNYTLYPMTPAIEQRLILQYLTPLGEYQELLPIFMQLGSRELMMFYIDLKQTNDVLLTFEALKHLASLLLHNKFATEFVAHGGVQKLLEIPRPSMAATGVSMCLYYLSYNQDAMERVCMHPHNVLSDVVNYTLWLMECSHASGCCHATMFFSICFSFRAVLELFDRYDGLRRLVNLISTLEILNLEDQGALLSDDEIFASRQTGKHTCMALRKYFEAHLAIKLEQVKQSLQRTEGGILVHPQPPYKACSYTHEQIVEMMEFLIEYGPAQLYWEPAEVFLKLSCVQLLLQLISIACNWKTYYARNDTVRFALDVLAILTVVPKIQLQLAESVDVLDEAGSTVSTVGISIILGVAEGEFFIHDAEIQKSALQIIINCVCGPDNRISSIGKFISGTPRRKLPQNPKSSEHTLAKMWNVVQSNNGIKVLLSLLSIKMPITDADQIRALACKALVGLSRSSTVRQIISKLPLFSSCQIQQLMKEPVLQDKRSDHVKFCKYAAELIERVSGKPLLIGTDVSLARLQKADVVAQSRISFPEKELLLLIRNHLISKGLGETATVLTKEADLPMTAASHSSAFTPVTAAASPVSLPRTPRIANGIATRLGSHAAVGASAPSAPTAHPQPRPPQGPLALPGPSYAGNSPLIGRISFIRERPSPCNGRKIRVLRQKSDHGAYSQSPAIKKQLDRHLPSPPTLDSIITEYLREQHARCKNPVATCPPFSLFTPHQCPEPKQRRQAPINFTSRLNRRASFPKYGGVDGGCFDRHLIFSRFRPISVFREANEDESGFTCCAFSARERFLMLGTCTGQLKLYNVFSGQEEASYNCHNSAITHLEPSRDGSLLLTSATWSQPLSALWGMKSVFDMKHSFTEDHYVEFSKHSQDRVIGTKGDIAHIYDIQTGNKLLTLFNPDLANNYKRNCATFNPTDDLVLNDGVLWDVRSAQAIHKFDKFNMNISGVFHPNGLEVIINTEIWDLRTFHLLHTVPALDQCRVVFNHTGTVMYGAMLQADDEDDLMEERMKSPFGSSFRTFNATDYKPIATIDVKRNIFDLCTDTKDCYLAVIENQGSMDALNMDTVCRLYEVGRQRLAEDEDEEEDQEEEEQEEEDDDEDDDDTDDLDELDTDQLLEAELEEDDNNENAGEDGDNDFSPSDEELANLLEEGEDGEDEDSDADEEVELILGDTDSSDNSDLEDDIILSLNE
It gave 16400 a.u. for “SYPRO Orange fluorescence” (WDR5; 49.8 °C).
WDR5; 74.41 °C — “SYPRO Orange fluorescence”: 24400 a.u.
The “SYPRO Orange fluorescence” was 12700 a.u. (WDR5; 29 °C).
WDR5; 92.01 °C — “SYPRO Orange fluorescence”: 48500 a.u.
It gave 49500 a.u. for “SYPRO Orange fluorescence” (DCAF1; 75.41 °C).
WDR5; 60.81 °C — “SYPRO Orange fluorescence”: 15400 a.u.
WDR5; 82.41 °C — “SYPRO Orange fluorescence”: 47100 a.u.
WDR5; 57.81 °C — “SYPRO Orange fluorescence”: 16300 a.u.
For WDR5; 55.61 °C: “SYPRO Orange fluorescence” read 16900 a.u.
DCAF1; 74.21 °C — “SYPRO Orange fluorescence”: 51000 a.u.
WDR5; 26.8 °C — “SYPRO Orange fluorescence”: 13000 a.u.

Study 2
SMILES: COCCCCCCC1CC2C(CCC3(C)C(O)CCC23)c2ccc(O)cc21 (stereo not drawn)
SK-OV-3; microarray, refers to: ACTA2; 10 µM; relative to: untreated — “mRNA level ratio”: 1.04.
The “mRNA level ratio” was 0.201 (SK-OV-3; DNA microarray, refers to: ACTB; 50 µM; relative to: untreated cells).
The “mRNA level ratio” was 1 (A549; DNA microarray, refers to: CCL11; 10 µM; relative to: untreated cells).

Study 3 — cell line: U-87 MG; concentration: concentration not given; relative to: DMSO
SMILES: CCN1/C(=C/C=C2\CCCC(/C=C/C3=[N+](CC)c4ccccc4C3(C)C)=C2NCCCCCCCCN2CCC(Nc3nc4ccccc4n3Cc3ccc(F)cc3)CC2)C(C)(C)c2ccccc21
It gave -0.998 for “log2 fold change” (refers to: FAM50B mRNA).
It gave 0.873 for “log2 fold change” (refers to: EPB41 mRNA).
refers to: ELL2 mRNA — “log2 fold change”: 0.909.
It gave -1.49 for “log2 fold change” (refers to: BCL9L mRNA).
The “log2 fold change” was -2.09 (refers to: MXRA8 mRNA).
refers to: HEG1 mRNA — “log2 fold change”: -2.82.
For refers to: CSTF2T mRNA: “log2 fold change” read -1.17.
For refers to: RTKN2 mRNA: “log2 fold change” read -1.49.
It gave 2.83 for “log2 fold change” (refers to: ACTN2 mRNA).
It gave -1.81 for “log2 fold change” (refers to: TYMS mRNA).
For refers to: CLINT1 mRNA: “log2 fold change” read 0.807.
refers to: MMP10 mRNA — “log2 fold change”: 5.99.
The “log2 fold change” was 1.26 (refers to: CHORDC1 mRNA).
For refers to: NR1D1 mRNA: “log2 fold change” read 1.18.
The “log2 fold change” was 2.03 (refers to: H4C15 mRNA).
refers to: LRRC45 mRNA — “log2 fold change”: -1.6.

Study 4
SMILES: Cc1ncsc1-c1ccc(C(CO)NC(=O)C2CC(O)CN2C(=O)C(C(C)C)n2cc(-c3ccc(COc4c(-c5c(C)c(F)cc6[nH]ncc56)c(C5CC5)cc5c(N6CC7CC6CN7)nc(OC6CCOCC6)nc45)cc3)nn2)cc1 (stereo not drawn)
For GP2d xenograft, mouse; 30 mg/kg twice weekly, day 7: tumour volume read 177 mm3 and 129 mm3 and 139 mm3 and 100 mm3 and 155 mm3.
GP5d xenograft, mouse; 30 mg/kg once weekly, day 4 — tumour volume: 166 mm3 and 98.4 mm3 and 133 mm3 and 136 mm3 and 160 mm3.
For mouse, lung LXFA sample B PDX; 30 mg/kg twice weekly, day 22: tumour volume read 188 mm3 and 81.2 mm3 and 269 mm3 and 63 mm3 and 33 mm3 and 67.1 mm3 and 19.7 mm3 and 159 mm3.
For mouse, lung LXFA sample B PDX; 10 mg/kg twice weekly, day 4: tumour volume read 375 mm3 and 102 mm3 and 47.1 mm3 and 124 mm3 and 132 mm3 and 263 mm3 and 197 mm3 and 70.3 mm3.
The tumour volume was 245 mm3 and 212 mm3 and 278 mm3 and 255 mm3 and 223 mm3 (mouse, PK-59 xenograft; 10 mg/kg, day 21).
For mouse, PK-59 xenograft; 10 mg/kg, day 4: tumour volume read 321 mm3 and 371 mm3 and 373 mm3 and 282 mm3 and 372 mm3.
It gave 138 mm3 and 434 mm3 and 223 mm3 and 312 mm3 and 105 mm3 and 318 mm3 and 111 mm3 and 164 mm3 for tumour volume (mouse, lung LXFA sample A PDX; 10 mg/kg twice weekly, day 22).

Single results of other studies
E3 ubiquitin-protein ligase NEDD4: E3 ubiquitin-protein ligase NEDD4 (Homo sapiens, UniProt P46934)
Chain of UniProt P46934 (whole entry, looked up): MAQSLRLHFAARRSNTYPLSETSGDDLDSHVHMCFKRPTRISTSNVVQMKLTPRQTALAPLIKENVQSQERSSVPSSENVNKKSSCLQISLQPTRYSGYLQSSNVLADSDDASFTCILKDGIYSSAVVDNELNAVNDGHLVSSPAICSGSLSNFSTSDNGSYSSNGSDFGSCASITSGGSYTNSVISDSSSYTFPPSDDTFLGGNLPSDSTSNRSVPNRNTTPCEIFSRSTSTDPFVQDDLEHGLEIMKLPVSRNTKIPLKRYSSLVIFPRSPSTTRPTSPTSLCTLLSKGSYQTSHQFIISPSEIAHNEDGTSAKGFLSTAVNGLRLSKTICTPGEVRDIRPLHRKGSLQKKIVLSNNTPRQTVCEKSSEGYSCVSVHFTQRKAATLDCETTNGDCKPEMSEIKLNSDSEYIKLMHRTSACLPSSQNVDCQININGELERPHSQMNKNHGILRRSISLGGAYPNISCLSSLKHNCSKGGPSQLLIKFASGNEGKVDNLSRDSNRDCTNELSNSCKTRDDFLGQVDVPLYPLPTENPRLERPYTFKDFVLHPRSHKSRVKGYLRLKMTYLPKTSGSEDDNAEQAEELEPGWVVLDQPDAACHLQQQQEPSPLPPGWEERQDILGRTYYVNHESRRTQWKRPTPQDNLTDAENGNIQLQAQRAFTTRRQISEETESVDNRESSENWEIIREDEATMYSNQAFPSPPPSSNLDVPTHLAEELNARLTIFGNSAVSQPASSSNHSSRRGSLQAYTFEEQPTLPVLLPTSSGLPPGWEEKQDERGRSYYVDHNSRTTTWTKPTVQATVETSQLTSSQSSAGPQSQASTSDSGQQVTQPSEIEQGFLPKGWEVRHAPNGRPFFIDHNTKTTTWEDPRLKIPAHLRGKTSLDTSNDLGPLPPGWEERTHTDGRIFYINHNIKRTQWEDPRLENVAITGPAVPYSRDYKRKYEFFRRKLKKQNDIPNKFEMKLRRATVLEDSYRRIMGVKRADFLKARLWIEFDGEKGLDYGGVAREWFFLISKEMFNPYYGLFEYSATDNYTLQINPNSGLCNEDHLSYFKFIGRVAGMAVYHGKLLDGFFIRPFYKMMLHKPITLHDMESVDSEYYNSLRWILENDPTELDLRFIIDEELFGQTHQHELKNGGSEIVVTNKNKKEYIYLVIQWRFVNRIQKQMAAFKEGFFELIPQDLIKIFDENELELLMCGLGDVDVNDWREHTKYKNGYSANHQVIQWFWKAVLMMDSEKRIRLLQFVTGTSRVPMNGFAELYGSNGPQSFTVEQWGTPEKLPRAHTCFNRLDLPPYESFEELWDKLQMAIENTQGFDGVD
`NC/C(=C\F)COc1ccc(Cn2c(=S)[nH]c(=O)c3[nH]cnc32)cc1` gave an inhibition of 104% (Amine oxidase [copper-containing] 3 (AOC3, Homo sapiens, UniProt Q16853); enzyme activity, inhibitor, fluorescence; 0.1111 µM).
The AUC(0-last) of `Cc1ccc(O)c(C)c1-c1cnc2[nH]c(-c3cnc(N4CCC(CN5CCN(c6ccc(NC7CCC(=O)NC7=O)cc6F)CC5)CC4)nc3)cc2c1C#N` (stereo not drawn) is reported as 6390 ng·h/mL (Sprague-Dawley rat, male, plasma; oral, 10 mg/kg).
`COc1cc(C(=O)OCCCN2CCCN(CCCOC(=O)c3cc(OC)c(OC)c(OCc4ccc([N+](=O)[O-])cc4)c3)CC2)cc(OC)c1OC` gave an IC50 of 92.7 nM (Equilibrative nucleoside transporter 1 (SLC29A1, Homo sapiens, UniProt Q99808, del243-274/L168F/N288K/P175A); ligand displacement).
The AUC(0-t) of `Cc1ccc(O)c(C)c1-c1cnc2[nH]c(-c3cnc(N4CCC5(CC4)CC(N4CCN(c6ccc(NC7CCC(=O)NC7=O)cc6F)CC4)CO5)nc3)cc2c1C#N` (stereo not drawn) is reported as 3090 ng·h/mL (female CD-1 mouse, plasma; oral, 10 mg/kg).
The inhibition of `C=CC(=O)NCCCN1c2ccccc2CCc2ccc(Cl)cc21` is reported as < 10% (E3 ubiquitin-protein ligase NEDD4; enzyme activity, inhibitor, TR-FRET; 11 µM).
`CCCN1C(=O)C(O)(C(=O)O)Oc2cc(F)ccc21` (stereo not drawn) — result for “fresh weight inhibition”: 54.8% and 53.6% and 53.9% (Arabidopsis thaliana; 2-week-old plants; foliar spray, 200 µg/mL, 20 days, postemergence; relative to: untreated).
The intrinsic clearance of `N#C/C=C/CNCCCCN1c2ccccc2CCc2ccc(Cl)cc21.O=C(O)/C=C\C(=O)O` is reported as 133 ± 10.3 µL/min/mg protein (human liver microsomes; 1 µM).
`Cc1ccc(O)c(C)c1-c1cnc2[nH]c(-c3cnc(N4CCC(CN5CCN(c6cc7c(cc6F)c(N6CCC(=O)NC6=O)nn7C)CC5)CC4)nc3)cc2c1C#N`: “phospho-CDK1 (Thr14) level” 19.6 a.u. and 29.5 a.u. (HCC1569; CDK1 Thr14 phosphorylation, in-cell western; 4.12 nM; lower = stronger inhibition).
With `CC[C@@]1(c2cccc(C(F)(F)F)c2)C2=C(Nc3n[nH]cc31)[C@H](F)C(C)(C)CC2=O` (single isomer, unassigned) the efflux ratio was 41 (ATP-dependent translocase ABCB1 (ABCB1, Homo sapiens, UniProt P08183)).
`Cc1ccc(O)c(C)c1-c1cnc2[nH]c(-c3cnc(N4CCC5(CC4)CC(N4CCN(c6ccc(N[C@H]7CCC(=O)N(C)C7=O)cc6F)CC4)CO5)nc3)cc2c1C#N` (single isomer, unassigned) gave a degradation of 6.08% (Membrane-associated tyrosine- and threonine-specific cdc2-inhibitory kinase (PKMYT1, Homo sapiens, UniProt Q99640); degrader, automated immunoblot (Jess); 0.05 nM, 24 h).
`COC(=O)CCCNCCCN1c2ccccc2CCc2ccc(Cl)cc21.COC(=O)CCCNCCCN1c2ccccc2CCc2ccc(Cl)cc21.O=C(O)/C=C/C(=O)O` gave an inhibition of 29.2% (E3 ubiquitin-protein ligase NEDD4; enzyme activity, inhibitor, TR-FRET; 33 µM).
For `O=C(O)C1(O)Oc2cc(F)ccc2N(Cc2ccccc2)C1=O` (stereo not drawn), “fresh weight inhibition” read 75.5% and 75.8% and 76.7% (Arabidopsis thaliana; 2-week-old plants; foliar spray, 200 µg/mL, 20 days, postemergence; relative to: untreated).
The IC50 of `CN1CCC[C@H]1COc1nc2c(c(N3CCN(C(=O)C4CC4)[C@@H](CC#N)C3)n1)CCN(c1cccc3cccc(Cl)c13)C2` is reported as 3200 nM (GTPase KRas (KRAS, Homo sapiens, UniProt P01116, Q61L); target engagement in cells, BRET).
With `O=C(O)C1(O)Oc2ccccc2N(Cc2ccccc2)C1=O` (stereo not drawn) the root length was 1.06 cm (Arabidopsis thaliana; Col-0; 50 µg/mL, seed germination).
With `CCOC(=O)/C=C/CNCCCN1c2ccccc2CCc2ccc(Cl)cc21` the inhibition was 85.5% (E3 ubiquitin-protein ligase NEDD4; enzyme activity, inhibitor, TR-FRET; 33 µM).
The normalized BRET of `C#Cc1cccc2cc(O)cc(-c3ncc4c(N5CC6CCC(C5)N6)nc(OCC56CCCN5CCC6)nc4c3F)c12` is reported as 89.3% and 100% and 101% and 73.3% (GTPase HRas (HRAS, Homo sapiens, UniProt P01112); binding, competitor, NanoBRET; HEK293; 370 nM).
`Cc1nc(C)c(C=[N+]([O-])C(C)(C)C)nc1C` — result for “HO-1 protein level”: 65.7 and 57.2 and 60.3 and 78.1 (Western blot; MPTP mouse model, substantia nigra cytosol; 10 mg/kg, unit not given; relative to: β-actin).

Repeated from above (study 3):
It gave 2.83 for “log2 fold change” (refers to: ACTN2 mRNA).
It gave -1.81 for “log2 fold change” (refers to: TYMS mRNA).
For refers to: CLINT1 mRNA: “log2 fold change” read 0.807.
refers to: MMP10 mRNA — “log2 fold change”: 5.99.
The “log2 fold change” was 1.26 (refers to: CHORDC1 mRNA).
For refers to: NR1D1 mRNA: “log2 fold change” read 1.18.
The “log2 fold change” was 2.03 (refers to: H4C15 mRNA).
